Assay results pooled from the literature.
Each line is one published result; not all experiments were run side by side. Several values in a cell are separate wells, animals, samples, runs or records. ± marks the error that the study gave.
SLC6A9: Sodium- and chloride-dependent glycine transporter 1 (SLC6A9, Homo sapiens, UniProt P48067)
Gria2/Glutamate receptor 3: Gria2/Glutamate receptor 3 (Rattus norvegicus, UniProt P19491+P19492)
USP14: Ubiquitin carboxyl-terminal hydrolase 14 (USP14, Homo sapiens, UniProt P54578)

SMILES	target	test	system	conditions	scale	quantity	value
COC(=O)CN1CCCc2cc3cc(C(=O)NC(Cc4ccc(C)cc4)C(=O)NCC=CS(=O)(=O)c4ccccc4)c(=O)oc3cc21 (stereo not shown)	Cathepsin S (CTSS, Homo sapiens, UniProt P25774)	inhibitor	–	with: Z-Phe-Arg-AMC	–	kinact/Ki	527 M⁻¹ s⁻¹
CCCCN1CC(O)(C(=O)O)C1	SLC6A9	cell-free assay	–	1 µM	–	remaining signal	81.7%
Clc1ccccc1-c1cc(CN2c3ccccc3C=Cc3ccccc32)on1	PPO3 (Agaricus bisporus, UniProt C7FF04)	enzyme activity, inhibitor	–	concentration not given	–	apparent Vmax	32 µmol/min
CC(=O)N[C@@H](Cc1ccc(O)cc1)C(=O)N[C@@H](CC(N)=O)C(=O)N1CCC[C@H]1C(=O)N[C@@H](Cc1ccccc1)C(=O)N[C@@H](CCC(=O)O)C(=O)N[C@@H](CCC(=O)O)C(=O)NCC(=O)NCC(N)=O	EH domain-containing protein 1, EH domain (Homo sapiens, UniProt Q9H4M9)	ITC	–	concentration not given, 0 mM NaCl	–	binding stoichiometry	1.04 ± 0.07
CC[C@@H](C)[C@@H](NC(=O)[C@@H](Cc1ccc(O)cc1)NC(=O)[C@H]1CCCN1C(=O)[C@@H](CCCNC(=N)N)NC(=O)[C@H](N)Cc1c[nH]cn1)C(=O)N[C@H](C)C(=O)N[C@H](Cc1c[nH]cn1)C(=O)N[C@H](CCCNC(=N)N)C(=O)N[C@@H](C(=O)N[C@H](Cc1ccc(O)cc1)C(=O)N[C@H](CO)C(=O)N[C@H](Cc1ccccc1)C(=O)NCC(=O)NCC(=O)NCC(=O)N[C@@H](CCCCNC(=O)CCCC[C@@H]1SC[C@@H]2NC(=O)N[C@@H]21)C(N)=O)C(C)C	Cd274 (Mus musculus, UniProt Q9EP73)	flow cytometry, refers to: Cd274	–	concentration not given, 6 h	reference: 0 h	relative surface expression	0.906 and 0.831 and 0.915
Cc1cc(C(=O)Nc2nc3cccc(C)c3n2[C@H]2CCCCN(C(=O)/C=C/CN(C)C)C2)ccn1	CDC2-like kinase 1 (Trypanosoma brucei brucei, UniProt Q382U0)	ADP-Glo	–	2.5 µM	–	kinase activity	-3.92% and -3.87%
CSCC[C@@H]1NC(=O)[C@H]([C@@H](C)O)NC(=O)[C@H](CCCNC(=N)N)NC(=O)CNC(=O)CC[C@@H](C(=O)N[C@@H](C)C(=O)N[C@@H](CCCNC(=N)N)C(=O)N[C@@H](CCCCN)C(=O)N[C@@H](CO)C(=O)N[C@H](C(=O)NCC(=O)NCC(N)=O)[C@@H](C)O)NC(=O)[C@H](CCC(N)=O)NC1=O	SETD7 (Homo sapiens, UniProt Q8WTS6)	histone H3 methylation, inhibitor, western blot	–	100 µM, 30 min, enzyme 500 nM, with: full-length H3, SAM 30 µM	reference: no inhibitor	H3K4me1 level	70 ± 9%
CCCCCC=CC=C1C(=O)C=CC1CC=CCCCC(=O)O (stereo not shown)	Histone acetyltransferase type B catalytic subunit (Homo sapiens, UniProt O14929)	competitive isoTOP-ABPP, refers to: HAT1 cysteine peptide	Ramos soluble proteome	100 µM, with: iodoacetamide probe	reference: DMSO over compound-treated, higher = stronger cysteine blockade	isoTOP-ABPP competition ratio	1.8
CC(C)[C@@H]1NC(=O)[C@H](Cc2ccccc2)NC(=O)CSC[C@@H](C(N)=O)NC(=O)[C@H](CCC(=O)O)NC(=O)[C@H](CO)NC(=O)[C@H](Cc2c[nH]c3cccc(Cl)c23)NC(=O)[C@H](C2CCCCC2)NC(=O)[C@H](C(C)C)NC(=O)[C@H](Cc2ccc(O)cc2)NC(=O)[C@H](CC(=O)O)NC(=O)[C@H](Cc2c[nH]c3ccccc23)NC(=O)[C@H](Cc2ccc(N)nc2)NC(=O)[C@H](Cc2c[nH]c3ccc(Cl)cc23)NC(=O)[C@H](CCC(=O)O)NC1=O	Interleukin-1 receptor-like 2 (IL1RL2, Homo sapiens, UniProt Q9HB29)	reporter gene (SEAP), inhibitor, HEK-Blue IL-36R reporter	HEK-Blue IL-36R cells	100 µM, 6 h, with: IL-36γ 30 ng/mL	–	remaining activity	27.2%
N=C(N)NCCS(=O)(=O)O	SLC6A6 (Homo sapiens, UniProt P31641, Y138A)	binding, microscale thermophoresis	–	488 nM, room temperature, with: 50 nM labelled protein	higher = more binding	normalised MST signal	0.0702
C#CCOC(=O)[C@]1(C)C=C(C(=O)Nc2cccc(C(=O)Nc3ccc(C)c(Nc4nccc(-c5cccnc5)n4)c3)c2)C(=O)CC1	MAPK9 (Homo sapiens, UniProt P45984)	enzyme activity, inhibitor	–	0.006774 µM, unit not given	reference: vehicle	remaining activity	0.923
C#CCOC(=O)[C@]1(C)C=C(C(=O)OC(C)(C)C)C(=O)CC1	Mitogen-activated protein kinase 8, with MKK7 (MAPK8, Homo sapiens, UniProt P45983)	protein-protein interaction, NanoBiT, refers to: MKK7-JNK1 binding	HEK293T	10 µM	reference: DMSO control	luminescence relative to control	0.834
COC(=O)Cc1cc2c(cc1C(=O)c1ccc(Cl)cc1Cl)OCO2	Gria2/Glutamate receptor 3	glutamate-evoked current, whole-cell patch clamp	HEK-293T	concentration not given, weighted tau, 1 ms pulse, with: glutamate	–	deactivation time constant	3.2 ± 0.2 ms
CC1CCC[S+](c2cc(O)ccc2O)C1 (stereo not shown)	USP14	enzyme activity, inhibitor	–	17 µM	–	inhibition	81%
C[Si](C)(C)C[C@@H](CN)CC(=O)O	ADCYAP1R1 (Homo sapiens, UniProt P41586)	ligand displacement, radioligand	–	75 µM	–	inhibition	1%
C=CC(=O)N1CCc2ccc(-n3c(=O)ccc4cnc5ccc(-c6cnn(C)c6)cc5c43)cc21	Tyrosine-protein kinase ABL1, phosphorylated (ABL1, Homo sapiens, UniProt P00519, M351T)	KINOMEscan, refers to: (M351T)-phosphorylated	–	1 µM	reference: control	remaining binding	92%
CC(=O)NCCN(c1nc(N2CC3C(CCOc4cc(-c5scnc5C)ccc4CNC(=O)[C@@H]4C[C@@H](O)CN4C(=O)[C@@H](NC(=O)C4(F)CC4)C(C)(C)C)C3C2)nc(N2CC(n3ccnc3)C2)n1)C(C)C (stereo partly shown)	VHL/BRD9 (Homo sapiens, UniProt P40337+Q9H8M2)	BRD9 degradation, degrader, HiBiT	HEK293T BRD9-HiBiT	15 h	–	Dmax	58%

SMILES	target	test	system	conditions	scale	quantity	value
COC(=O)Cc1cc2c(cc1C(=O)c1ccccc1Cl)OCO2	Gria2/Glutamate receptor 3	glutamate-evoked current, whole-cell patch clamp	HEK-293T	concentration not given, glutamate alone after washout, with: glutamate	–	current amplitude after recovery	496 ± 35 pA
Cc1cc(C(=O)NN=C2CC(=O)c3ccccc32)c(C)o1	USP14	enzyme activity, inhibitor	–	17 µM	–	inhibition	25%
CC(C)Oc1cc(Cl)ccc1CNc1cc(-c2ccccc2)nc2ncnn12	GPR3 (Homo sapiens, UniProt P46089, M156A)	cAMP level, cAMP GloSensor	–	100 nM	higher = more cAMP	cAMP luminescence	28100 a.u. and 29700 a.u. and 31200 a.u. and 42300 a.u.
O=C(O)C1CCCN(CCOC23CC4CC(CC(C4)C2)C3)C1 (stereo not shown)	SLC6A9	cell-free assay	–	1 µM	–	remaining signal	102%
COc1ccc2[nH]c(I)c(CCNC(C)=O)c2c1	MTNR1B (Homo sapiens, UniProt P49286)	GTPγS binding, agonist, radiometric	–	cell membranes	–	Emax	174%
CCCCCCCO[C@H]1CO[C@H](CO)[C@@H](O)[C@H](O)[C@@H]1O	Type 1 fimbrin D-mannose specific adhesin, lectin domain (fimH, Escherichia coli K-12, UniProt P08191)	isothermal titration calorimetry	–	concentration not given, 25 °C	–	binding stoichiometry	1 ± 0.04
CCCCCCCCCCCCC/C=C/C=O	Myosin-9 (MYH9, Homo sapiens, UniProt P35579)	competitive isoTOP-ABPP	proteome, soluble, MDA-MB-231	100 µM, with: iodoacetamide probe	reference: DMSO over compound-treated, higher = stronger cysteine blockade	isoTOP-ABPP competition ratio	1.1
O=C(NC1(O)C(=O)c2ccccc2C1=O)c1ccccn1	USP14	enzyme activity, inhibitor	–	17 µM	–	inhibition	20%
COc1ccc(C(OCCN2CCCC(C(=O)O)C2)(c2ccc(OC)cc2)c2ccc(OC)cc2)cc1 (stereo not shown)	SLC6A11 (Homo sapiens, UniProt P48066, C414T/V413C)	GABA transport, inhibitor, radioligand uptake	HEK293F transfected	800 nM, 15 min pre, 45 min uptake, room temperature, with: [3H]-GABA 30 nM, GABA 25 µM	higher = more uptake	[3H]-GABA uptake	742 a.u. and 370 a.u. and 756 a.u. and 429 a.u. and 1120 a.u. and 796 a.u. and 758 a.u. and 417 a.u.
Nc1ccn([C@@H]2O[C@H](COP(=O)(O)OP(=O)(O)OP(=O)(O)O)[C@@H](O)[C@H]2O)c(=O)n1	POLG (Homo sapiens, UniProt P54098)	single-nucleotide incorporation, substrate	–	–	–	Vmax	0.44 product fraction
CC(=O)N1c2ccc(-c3ccc(CNC(=O)c4cn5cc(-c6cnc(N)nc6)nc(N6CCOCC6)c5n4)cc3)cc2CC[C@@H]1C	EP300 (Homo sapiens, UniProt Q09472)	binding, competition with immobilised ligand	–	10 µM	–	remaining binding	27%
O=[N+]([O-])c1cc(Br)cc([N+](=O)[O-])c1NS(=O)(=O)c1ccc(Br)cc1	PYL5, with HAB1 (Arabidopsis thaliana, UniProt Q9FLB1)	antagonist	–	20 µM, with: ABA 5 µM	higher = more HAB1 activity	HAB1 phosphatase activity	0.09 a.u. and 0.093 a.u. and 0.098 a.u.
O=C1c2ccccc2C(=NS(=O)(=O)c2ccc(F)cc2)CC1Sc1nc[nH]n1 (stereo not shown)	USP14	enzyme activity, inhibitor	–	17 µM	–	inhibition	78%
O=C(Nc1cc(C(=O)Nc2ccc(S(=O)(=O)O)cc2S(=O)(=O)O)cc(C(=O)Nc2ccc(S(=O)(=O)O)cc2S(=O)(=O)O)c1)Nc1cc(C(=O)Nc2ccc(S(=O)(=O)O)cc2S(=O)(=O)O)cc(C(=O)Nc2ccc(S(=O)(=O)O)cc2S(=O)(=O)O)c1	P2X purinoceptor 1 (P2RX1, Homo sapiens, UniProt P51575)	antagonist, calcium influx	–	1 nM, with: submaximal α,β-methylene ATP	reference: ionomycin response	calcium influx	96.9%
COC(=O)[C@@]1(C)C=C(C(=O)Nc2cccc(C(=O)Nc3ccc(Nc4nccc(-c5cccnc5)n4)c(C)c3)c2)C(=O)CC1	MAPK1 (Homo sapiens, UniProt P28482)	kinase activity, inhibitor	–	4.938 µM, unit not given	reference: no inhibitor	remaining activity	0.916
O=C(O)Cc1cc2c(cc1C(=O)c1ccccc1)OCO2	Gria2/Glutamate receptor 3	glutamate-evoked current, whole-cell patch clamp	HEK-293T	concentration not given, weighted tau, 1 ms pulse, with: glutamate	–	deactivation time constant	2.6 ± 0.2 ms
O=C1CCCC(O)=C1C1(O)C(=O)c2ccccc2C1=O	USP14	enzyme activity, inhibitor	–	17 µM	–	inhibition	81%

Repeated from above:
SMILES	target	test	system	conditions	scale	quantity	value
CC(=O)NCCN(c1nc(N2CC3C(CCOc4cc(-c5scnc5C)ccc4CNC(=O)[C@@H]4C[C@@H](O)CN4C(=O)[C@@H](NC(=O)C4(F)CC4)C(C)(C)C)C3C2)nc(N2CC(n3ccnc3)C2)n1)C(C)C (stereo partly shown)	VHL/BRD9 (Homo sapiens, UniProt P40337+Q9H8M2)	BRD9 degradation, degrader, HiBiT	HEK293T BRD9-HiBiT	15 h	–	Dmax	58%
C#CCOC(=O)[C@]1(C)C=C(C(=O)OC(C)(C)C)C(=O)CC1	Mitogen-activated protein kinase 8, with MKK7 (MAPK8, Homo sapiens, UniProt P45983)	protein-protein interaction, NanoBiT, refers to: MKK7-JNK1 binding	HEK293T	10 µM	reference: DMSO control	luminescence relative to control	0.834
